{"data": "Results collected from several papers", "note": "Parts stem from different laboratories: compare values within a part only. Substitutions count along the parent as printed."}
{"data": "Set 1", "target": "CCNE1, cyclin fold, Cln2 fusion (human)", "method": "yeast growth competition, sequencing", "matrix": "yeast", "setting": "strong parent motif", "baseline": "not given", "direction": "higher = stronger binding", "starting sequence": "PLK5 docking peptide (human); IFRKVGQRLLTQC"}
{"Substitution": "R8A", "normalised enrichment score": 1.6}
{"Substitution": "Q7A", "normalised enrichment score": 1.59}
{"Substitution": "L9A", "normalised enrichment score": 0.135}
{"Substitution": "C13A", "normalised enrichment score": 0.813}
{"Substitution": "Q12A", "normalised enrichment score": 1.62}
{"Substitution": "T11A", "normalised enrichment score": 1.59}
{"data": "Set 2", "target": "Prothrombin, mature alpha-thrombin (F2, Homo sapiens, UniProt P00734)", "method": "aptamer microarray, sandwich", "molecule type": "DNA with 2'F-ANA", "matrix": "in vitro", "concentration": "200 nM", "setting": "whole 15-mer aptamer, many near background", "with": "Cy3 exosite-II aptamer, 400 nM", "direction": "higher = stronger binding", "sequence": "GGTTGGTGTGGTTGG"}
{"Modification": "2'F-ANA at 2 6 7 8 10 15", "mean fluorescence intensity [a.u.]": 121}
{"Modification": "2'F-ANA at 1 2 4 8 12 13", "mean fluorescence intensity [a.u.]": 199}
{"Modification": "2'F-ANA at 3 4 5 6 10 12 13 14", "mean fluorescence intensity [a.u.]": 119}
{"Modification": "2'F-ANA at 1 3 4 8 10 11 12 13 14", "mean fluorescence intensity [a.u.]": 77.4}
{"Modification": "2'F-ANA at 1 5 8 10 12 14 15", "mean fluorescence intensity [a.u.]": 51.3}
{"Modification": "2'F-ANA at 1 2 3 4 6 8", "mean fluorescence intensity [a.u.]": 182}
{"Modification": "2'F-ANA at 5 10 13 14 15", "mean fluorescence intensity [a.u.]": 46}
{"Modification": "2'F-ANA at 1 3 5 8 9 11 14", "mean fluorescence intensity [a.u.]": 50.8}
{"Modification": "2'F-ANA at 2 5 6 7 9 10 11 14 15", "mean fluorescence intensity [a.u.]": 48.5}
{"Modification": "2'F-ANA at 5 6 11 12", "mean fluorescence intensity [a.u.]": 125}
{"Modification": "2'F-ANA at 2 3 4 5 7 10 12 15", "mean fluorescence intensity [a.u.]": 57}
{"Modification": "2'F-ANA at 1 13 15", "mean fluorescence intensity [a.u.]": 144}
{"Modification": "2'F-ANA at 1 2 7 8 9 11 12 13 14", "mean fluorescence intensity [a.u.]": 67.1}
{"Modification": "2'F-ANA at 1 3 6 7 8 9 13 14", "mean fluorescence intensity [a.u.]": 91.1}
{"Modification": "2'F-ANA at 2 4 9 10 11", "mean fluorescence intensity [a.u.]": 82.2}
{"Modification": "2'F-ANA at 1 4 5 11", "mean fluorescence intensity [a.u.]": 48.4}
{"Modification": "2'F-ANA at 1 3 6 8 9 11 13", "mean fluorescence intensity [a.u.]": 234}
{"Modification": "2'F-ANA at 1 2 3 7 10 11 12 15", "mean fluorescence intensity [a.u.]": 109}
{"Modification": "2'F-ANA at 2 4 8 9 10 13 14 15", "mean fluorescence intensity [a.u.]": 68.2}
{"Modification": "2'F-ANA at 3 6 7 8 9 12 13 14", "mean fluorescence intensity [a.u.]": 541}
{"Modification": "2'F-ANA at 1 2 3 6 7 11 12 14", "mean fluorescence intensity [a.u.]": 73.1}
{"Modification": "2'F-ANA at 1 5 8 9 10 11 12 15", "mean fluorescence intensity [a.u.]": 49.6}
{"Modification": "2'F-ANA at 1 5 6 8 9 12 14", "mean fluorescence intensity [a.u.]": 46.2}
{"data": "Set 3", "target": "ABI1, truncated, D143A, DHFR fusion (Arabidopsis thaliana)", "method": "DHFR PCA, deep sequencing", "matrix": "yeast", "setting": "methotrexate growth selection, single substitutions", "with": "(+)-ABA 58 µM", "baseline": "wild-type fitted maximum", "direction": "higher = stronger binding", "starting sequence": "PYL1, truncated, DHFR fusion (Arabidopsis thaliana); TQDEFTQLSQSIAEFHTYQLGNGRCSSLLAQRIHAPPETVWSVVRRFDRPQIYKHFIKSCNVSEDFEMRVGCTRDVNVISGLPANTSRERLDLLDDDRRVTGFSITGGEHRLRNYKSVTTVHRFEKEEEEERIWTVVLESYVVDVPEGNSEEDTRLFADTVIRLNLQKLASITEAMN; partner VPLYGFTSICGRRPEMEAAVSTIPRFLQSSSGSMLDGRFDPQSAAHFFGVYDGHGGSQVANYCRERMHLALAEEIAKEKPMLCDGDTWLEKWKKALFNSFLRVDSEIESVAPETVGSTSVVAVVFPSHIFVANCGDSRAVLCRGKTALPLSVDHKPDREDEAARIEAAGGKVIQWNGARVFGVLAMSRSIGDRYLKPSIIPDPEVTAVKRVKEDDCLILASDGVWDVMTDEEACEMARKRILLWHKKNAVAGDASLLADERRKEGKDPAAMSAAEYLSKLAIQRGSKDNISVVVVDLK"}
{"Substitution": "A13V", "relative binding score [%]": 82.7}
{"Substitution": "L94I", "relative binding score [%]": 88.7}
{"Substitution": "V100S", "relative binding score [%]": 41.9}
{"Substitution": "S59F", "relative binding score [%]": 58.1}
{"Substitution": "V136M", "relative binding score [%]": 95.4}
{"Substitution": "S87W", "relative binding score [%]": -4.05}
{"Substitution": "W134I", "relative binding score [%]": 99.1}
{"Substitution": "V78D", "relative binding score [%]": 6.27}
{"Substitution": "H110Y", "relative binding score [%]": 10.4}
{"Substitution": "R99E", "relative binding score [%]": 13.6}
{"Substitution": "T39N", "relative binding score [%]": 76.6}
{"Substitution": "E14T", "relative binding score [%]": 76.6}
{"Substitution": "H122G", "relative binding score [%]": 17.9}
{"Substitution": "T106W", "relative binding score [%]": 79.9}
{"data": "Set 4", "target": "RING finger protein unkempt homolog, zinc fingers 1-6, GST-SBP tag (UNK, Homo sapiens, UniProt Q9C0B0, residues 30-357)", "method": "RNA Bind-n-Seq", "molecule type": "RNA", "matrix": "in vitro", "concentration": "not given", "setting": "RNA with constant flanks, ends assumed", "baseline": "input RNA pool", "direction": "higher = stronger binding", "shared flanks, not repeated": "GGGAGUUCUACAGUCCGACGAUC … CAACAGAGGAUUGAGCAUCA", "Construct (chain)": "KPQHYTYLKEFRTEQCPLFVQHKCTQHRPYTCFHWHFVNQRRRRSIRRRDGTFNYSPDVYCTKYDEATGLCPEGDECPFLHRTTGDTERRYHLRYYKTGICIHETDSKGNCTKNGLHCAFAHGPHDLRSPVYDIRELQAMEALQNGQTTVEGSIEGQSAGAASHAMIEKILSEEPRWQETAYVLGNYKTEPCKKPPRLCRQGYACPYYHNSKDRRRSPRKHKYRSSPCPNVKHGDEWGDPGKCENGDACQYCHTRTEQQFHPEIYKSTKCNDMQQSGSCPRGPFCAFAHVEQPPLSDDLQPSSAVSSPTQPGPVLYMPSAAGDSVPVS"}
{"Sequence": "UUUUUUAAGUUUUUUUAACGUCUGCUUUUAGAAGUGGAGCUUUGACAGGGUGUUUGCUCGACCGAAAGGCAGCCUCUGUCCUUAAGAAGAGAUUGUUACCAAGACUCCAGGCUAGGAGAG", "bound/input enrichment": "0.83 ratio"}
{"Sequence": "AUUUUUCAGAGAAGUAUAGAUACUGUCUCCACUCCCUAAUAAUUUCUCUCCCUAACAUUUCCGCAAUUUUUACCUUGUUUGGGGGUUCAUUUUGUUUCUUCAGAUUUGAUUUAGACUCUG", "bound/input enrichment": "0.838 ratio"}
{"Sequence": "GCUGUGGCCAGAGGCUGUGCACUGCAGUGUGCAAUUCUUUCUCCGGCAUUUAAAGUCCGAGAGUUCUCUGUCACCGAUGCAGUUCCUUUUCCAAUAUCUCUGGUCUGGAACCACGACUCG", "bound/input enrichment": "0.0848 ratio"}
{"Sequence": "ACUCGUUUGCUUUUUUUCUUUUUUUAACUAAGAGCUGUGUUCCUGGCUAGAGAAUUUCAUUACCGGGAGCUGAGCCCCGGCCCAUAUGGGUGUACUGCUCGGAGACUGGGAGCAAGGGGU", "bound/input enrichment": "0.558 ratio"}
{"Sequence": "UACCCGCCAUAUAAUCAGUAUCCCAAUGGGUCAGCCAACGGUUUUGGUGCAGUUAGAAACUUCCGCCCUACUGACUAUUACCAUUCAGAAAUUCCAAACACAAGACCACAUGAAAUUCUG", "bound/input enrichment": "0.319 ratio"}
{"Sequence": "AGUUUAUUAUUGUUGCUUAAUAAGAAAACACGGUUCCACUUGGGCUAUUUUAAGGGCAGGCCGCUAUCACUCUGUCUUGUGUUAUGAUUAAUAUUAUCUGCAUAAGCAUAGAAUAAUACU", "bound/input enrichment": "0.373 ratio"}
{"Sequence": "CUGGCAGUUGAGAGACUGUUGGAGCCUCUUGUUACACAGGUUACAACCCUUGUAAACACCAACCGUAAAGGGCCCUCUAAUAAGAAGAGAGGUCGUUCUAAGAAGGCCCAUGUUUUGGCU", "bound/input enrichment": "0.201 ratio"}
{"Sequence": "ACUGCAGUGUCCCGGAGCCUGCGUGUGGUGGGCAAGCUCCUCAAAUGGUAUCUCACAGGGAACCGGGGAGUCUUGAAAACGCAGCUUCGGCAGUAGGAACAUGAACCUCUUACCUAAAAG", "bound/input enrichment": "0.158 ratio"}
{"Sequence": "GAGAAUCAGGAAUCAUUGAGAUCUCUGGGAGCAUGGAACCUGGAGAAUUUGAGAUCUCCAGAGGAGGCCGACAAGGAAAGUCAAAGGAAUCUGGAAGAGGAAGAGAACCUGGGAAAGGGA", "bound/input enrichment": "0.353 ratio"}
{"Sequence": "CACCCUACUCUGGGUGCCAGUGUGCUUCAUAUCACUGAAAACGGGCCAACUGAAGUGGACUACCGUCCCUCUGAUAUCCAGGACUCUAGUUUGUCGCAUAAGAUCCCGCCAACGGAAGAG", "bound/input enrichment": "0.202 ratio"}
{"Sequence": "GGCUGCUGGUGACUGUCCUGGAGUGGCUGGAGUUCCCGCCGGAGCGCGGCCAGACUAAUUUCCGAAAAUGCCAAGUAGGAAGUUUGUUGAGGGUGAAGUGGUCAGAGGCCGAUGGCCUGG", "bound/input enrichment": "0.185 ratio"}
{"note": "Repeated from above (set 4):"}
{"Sequence": "GCUGUGGCCAGAGGCUGUGCACUGCAGUGUGCAAUUCUUUCUCCGGCAUUUAAAGUCCGAGAGUUCUCUGUCACCGAUGCAGUUCCUUUUCCAAUAUCUCUGGUCUGGAACCACGACUCG", "bound/input enrichment": "0.0848 ratio"}
{"Sequence": "ACUCGUUUGCUUUUUUUCUUUUUUUAACUAAGAGCUGUGUUCCUGGCUAGAGAAUUUCAUUACCGGGAGCUGAGCCCCGGCCCAUAUGGGUGUACUGCUCGGAGACUGGGAGCAAGGGGU", "bound/input enrichment": "0.558 ratio"}
{"Sequence": "UACCCGCCAUAUAAUCAGUAUCCCAAUGGGUCAGCCAACGGUUUUGGUGCAGUUAGAAACUUCCGCCCUACUGACUAUUACCAUUCAGAAAUUCCAAACACAAGACCACAUGAAAUUCUG", "bound/input enrichment": "0.319 ratio"}
{"Sequence": "AGUUUAUUAUUGUUGCUUAAUAAGAAAACACGGUUCCACUUGGGCUAUUUUAAGGGCAGGCCGCUAUCACUCUGUCUUGUGUUAUGAUUAAUAUUAUCUGCAUAAGCAUAGAAUAAUACU", "bound/input enrichment": "0.373 ratio"}
{"Sequence": "CUGGCAGUUGAGAGACUGUUGGAGCCUCUUGUUACACAGGUUACAACCCUUGUAAACACCAACCGUAAAGGGCCCUCUAAUAAGAAGAGAGGUCGUUCUAAGAAGGCCCAUGUUUUGGCU", "bound/input enrichment": "0.201 ratio"}
{"Sequence": "ACUGCAGUGUCCCGGAGCCUGCGUGUGGUGGGCAAGCUCCUCAAAUGGUAUCUCACAGGGAACCGGGGAGUCUUGAAAACGCAGCUUCGGCAGUAGGAACAUGAACCUCUUACCUAAAAG", "bound/input enrichment": "0.158 ratio"}
{"Sequence": "GAGAAUCAGGAAUCAUUGAGAUCUCUGGGAGCAUGGAACCUGGAGAAUUUGAGAUCUCCAGAGGAGGCCGACAAGGAAAGUCAAAGGAAUCUGGAAGAGGAAGAGAACCUGGGAAAGGGA", "bound/input enrichment": "0.353 ratio"}
{"Sequence": "CACCCUACUCUGGGUGCCAGUGUGCUUCAUAUCACUGAAAACGGGCCAACUGAAGUGGACUACCGUCCCUCUGAUAUCCAGGACUCUAGUUUGUCGCAUAAGAUCCCGCCAACGGAAGAG", "bound/input enrichment": "0.202 ratio"}
